{"data": "Published values of several laboratories", "note": "Compare with care: the assays were run in different laboratories. Several values in a cell are separate wells, animals, samples, runs or records. ± marks the error that the study gave.", "chain of UniProt Q9Y5N1 (whole entry, looked up)": "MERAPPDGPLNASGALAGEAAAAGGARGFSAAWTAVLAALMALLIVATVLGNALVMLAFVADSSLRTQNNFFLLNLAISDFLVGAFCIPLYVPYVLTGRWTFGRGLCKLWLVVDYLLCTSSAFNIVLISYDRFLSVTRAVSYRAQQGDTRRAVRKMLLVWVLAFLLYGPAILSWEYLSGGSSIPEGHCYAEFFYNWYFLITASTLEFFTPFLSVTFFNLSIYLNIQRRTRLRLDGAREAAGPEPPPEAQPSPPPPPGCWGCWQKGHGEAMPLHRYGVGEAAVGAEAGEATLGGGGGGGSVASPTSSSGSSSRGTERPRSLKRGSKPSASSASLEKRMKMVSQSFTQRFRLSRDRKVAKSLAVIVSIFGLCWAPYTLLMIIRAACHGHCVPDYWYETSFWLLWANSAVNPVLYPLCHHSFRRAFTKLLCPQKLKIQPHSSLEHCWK", "chain of UniProt Q9Y6E0 (whole entry, looked up)": "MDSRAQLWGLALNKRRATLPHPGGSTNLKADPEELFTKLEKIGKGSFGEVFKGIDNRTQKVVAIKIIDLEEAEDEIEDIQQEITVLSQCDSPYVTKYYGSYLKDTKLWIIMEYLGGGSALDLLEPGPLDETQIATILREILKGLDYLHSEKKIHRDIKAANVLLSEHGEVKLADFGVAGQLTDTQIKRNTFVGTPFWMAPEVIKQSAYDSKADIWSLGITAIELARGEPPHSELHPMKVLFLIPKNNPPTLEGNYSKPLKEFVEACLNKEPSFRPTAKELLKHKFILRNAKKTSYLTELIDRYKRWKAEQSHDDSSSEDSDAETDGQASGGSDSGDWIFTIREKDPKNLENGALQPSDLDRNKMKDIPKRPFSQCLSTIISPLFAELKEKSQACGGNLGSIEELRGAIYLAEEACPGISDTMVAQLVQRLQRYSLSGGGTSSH", "chain of UniProt Q9NZ01 (whole entry, looked up)": "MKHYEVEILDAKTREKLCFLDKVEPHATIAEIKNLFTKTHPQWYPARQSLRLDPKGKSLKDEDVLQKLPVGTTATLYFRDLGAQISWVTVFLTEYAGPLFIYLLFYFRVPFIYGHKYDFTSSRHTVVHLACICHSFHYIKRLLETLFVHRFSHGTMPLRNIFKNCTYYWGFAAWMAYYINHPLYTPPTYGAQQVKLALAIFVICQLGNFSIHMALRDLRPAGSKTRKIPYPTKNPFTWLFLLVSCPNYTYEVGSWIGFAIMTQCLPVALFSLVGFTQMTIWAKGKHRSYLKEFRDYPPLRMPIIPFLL"}
{"Compound": "CC[C@H](C)[C@@H]1NC(=O)[C@@H]2CCCN2C(=O)[C@H](CC(C)C)NC(=O)[C@H](CC(C)C)NC(=O)CNC(=O)[C@@H](NC(=O)[C@@H](NC(=O)[C@H](CC(=O)O)NC(=O)CNC(=O)[C@@H](NC(=O)[C@H](C)NC(=O)CNC(=O)[C@H](CCCCN)NC(=O)[C@H](CC(C)C)NC(=O)[C@H](CC(C)C)NC(=O)[C@H](CCCCN)NC(=O)CNC(=O)[C@@H](NC(=O)[C@@H](N)CC(C)C)C(C)C)C(C)C)C(C)C)CSSC[C@@H](C(=O)O)NC1=O", "assay": "RNA-seq, measured: Klra2 mRNA", "test system": "mouse traumatic brain injury, frontal cortex and hippocampus", "conditions": "dose not given", "scale": "reference: TBI plus compound vs TBI", "quantity": "log2 fold change", "result": -2.83}
{"Compound": "CO[C@H]1C[C@@H]2CC[C@@H](C)[C@@](O)(O2)C(=O)C(=O)N2CCCC[C@H]2C(=O)O[C@H]([C@H](C)C[C@@H]2CC[C@@H](OC(=O)NCCOCCOCCOCCOCCOCCOCCOCCOCCC(=O)N3CCc4cc(Cn5nc(-c6ccc7oc(N)nc7c6)c6c(N)ncnc65)ccc4C3)[C@H](OC)C2)C[C@@H](O)[C@H](C)/C=C(\\C)[C@@H](O)[C@@H](OC)C(=O)[C@H](C)C[C@H](C)/C=C/C=C/C=C/1C", "test system": "patients with advanced solid tumours", "conditions": "intravenous, 10 mg weekly, any grade", "quantity": "AE leading to dose interruption", "result": "87.5%"}
{"Compound": "CC(C)[C@@H]1NC(=O)CNC(=O)[C@H](CC(N)=O)NC(=O)[C@H](CCCNC(=N)N)NC(=O)[C@H](Cc2ccc(O)cc2)NC(=O)[C@H](C(C)C)NC(=O)[C@@H](NC(=O)[C@@H](NC(=O)[C@H](CC(N)=O)NC(=O)[C@H](Cc2c[nH]c3ccccc23)NC(=O)[C@H](C)NC(=O)[C@H](Cc2ccccc2)NC(=O)CN)C(C)C)CSSC[C@@H](C(=O)N[C@@H](Cc2cnc[nH]2)C(=O)N[C@@H](CCCNC(=N)N)C(=O)N[C@@H](CCCNC(=N)N)C(=O)N[C@@H](C)C(=O)N[C@@H](CC(N)=O)C(N)=O)NC(=O)[C@H](C(C)C)NC(=O)[C@H](CCCNC(=N)N)NC1=O", "test system": "ICR mouse", "conditions": "ip, 5 mg/kg", "scale": "direction not given", "quantity": "group interaction score", "result": 0}
{"Compound": "C[C@@H](O)[C@@H](CO)NC(=O)[C@@H](CCCNC(=N)N)NC(=O)[C@@H]1CCCN1C(=O)[C@@H]1CSSC[C@H](NC(=O)[C@H](Cc2ccccc2)NC(=O)CN2CCN(CC(=O)O)CCN(CC(=O)O)CCN(CC(=O)O)CC2)C(=O)N[C@@H](Cc2ccc(O)cc2)C(=O)N[C@@H](Cc2ccccc2)C(=O)N[C@@H](CCC(N)=O)C(=O)N[C@@H](CC(N)=O)C(=O)N1 [gallium-68 labelled]", "test system": "healthy Wistar rat, large intestine", "conditions": "intravenous, 8 MBq, 120 min, individual animals", "quantity": "tissue uptake", "result": "0.02 %ID/g"}
{"Compound": "N#Cc1ccc(N2CCN(Cc3ccc(COc4cccc5c4CN([C@H]4CCC(=O)NC4=O)C5=O)cc3)CC2)c(F)c1", "assay": "population PK model", "test system": "human", "conditions": "oral, dose not given, BLQ concentrations excluded", "quantity": "central volume", "result": "434 L"}
{"Compound": "CN1CCN(c2cc(-c3ccncc3)c(-c3ccc4ccccc4c3)nn2)CC1", "tested on": "Histamine H3 receptor (HRH3, Homo sapiens, UniProt Q9Y5N1)", "assay": "antagonist, FLIPR", "conditions": "10 µM", "quantity": "inhibition", "result": "75.2%"}
{"Compound": "CC[C@H](C)[C@H](NC(=O)[C@H](Cc1ccccc1)NC(=O)[C@H](CCC(=O)O)NC(=O)[C@H](CCCNC(=N)N)NC(=O)[C@H](C)NC(=O)[C@H](C)NC(=O)[C@H](CCC(N)=O)NC(=O)[C@H](CCC(=O)O)NC(=O)[C@H](CCC(=O)O)NC(=O)[C@H](CC(C)C)NC(=O)[C@H](Cc1ccc(O)cc1)NC(=O)[C@H](CO)NC(=O)[C@H](CO)NC(=O)[C@@H](NC(=O)[C@H](CC(=O)O)NC(=O)[C@H](CO)NC(=O)[C@@H](NC(=O)[C@H](Cc1ccccc1)NC(=O)[C@@H](NC(=O)CNC(=O)[C@H](CCC(=O)O)NC(=O)[C@H](C)NC(=O)CCc1c[nH]cn1)[C@@H](C)O)[C@@H](C)O)C(C)C)C(=O)N[C@@H](C)C(=O)N[C@@H](Cc1c[nH]c2ccccc12)C(=O)N[C@@H](CC(C)C)C(=O)N[C@H](C(=O)N[C@@H](CCCNC(=N)N)C(=O)NCC(=O)N[C@@H](CCCNC(=N)N)C(=O)N[C@@H](CCCCNC(=O)COCCOCCNC(=O)COCCOCCNC(=O)CC[C@H](NC(=O)CCCCCCCCCCCCCCCCC(=O)O)C(=O)O)C(=O)NCC(=O)NCC(=O)N[C@@H](CO)C(=O)N[C@@H](CCCCNc1c(NCCCCCN(O)C(=O)CCC(=O)NCCCCCN(O)C(=O)CCC(=O)NCCCCCN(O)C(C)=O)c(=O)c1=O)C(=O)O)C(C)C [zirconium-89 labelled]", "assay": "ex vivo gamma counting", "test system": "rat, colon content", "conditions": "subcutaneous, 3 nmol/kg, 168 h, added: [89Zr]-labelled peptide", "quantity": "tissue uptake", "result": "0.05 %ID/g"}
{"Compound": "C[C@]1(CO)Cc2ncn(-c3ccc(C#N)c(Cl)c3)c2C(=O)O1", "test system": "healthy humans", "conditions": "10 mg, fed", "quantity": "drug-related Hyperhidrosis incidence", "result": "8.3%"}
{"Compound": "CCc1ccc(CC/C=C/c2ccc3c(c2)C(=O)CC3)cc1", "test system": "Sprague-Dawley rat, male, blood", "conditions": "oral, 120 mg/kg/day, 14 days", "quantity": "MCH", "result": "19.6 pg"}
{"Compound": "COc1cc(Nc2ncc(F)c(Nc3ccc4c(n3)NC(=O)C(C)(C)O4)n2)cc(OC)c1OC", "tested on": "PP1", "quantity": "IC50", "result": "> 10 µM"}
{"Compound": "N#C[C@H](O[C@@H]1O[C@H](CO)[C@@H](O)[C@H](O)[C@H]1O)c1ccccc1", "test system": "Sprague Dawley rat, plasma", "conditions": "oral, 3.34 g lyophilized powder/kg, low dose", "quantity": "Tmax", "result": "49.2 ± 40.8 min"}
{"Compound": "C=CC(=O)N1CC[C@H](n2nc(C#Cc3cc(OC)cc(OC)c3)c3c(N)ncnc32)C1", "test system": "human patients", "conditions": "oral, dose not given, QD regimen, adverse drug reaction, added: ferric citrate hydrate", "quantity": "decreased appetite, any grade", "result": "100%"}
{"Compound": "CN1CC[C@@H](c2c(O)cc(O)c3c(=O)cc(-c4ccc(C(F)(F)F)cc4Cl)oc23)[C@@H]1CO", "assay": "measured: Fatigue", "test system": "AML", "conditions": "oral, 200 mg, intermittent dosing", "quantity": "patients with adverse event", "result": "40%"}
{"Compound": "O[C@H]1CCCN[C@@H]1CCCn1cnc2c(Cl)c(Cl)ccc21", "test system": "healthy CYP2D6 intermediate metabolizers, plasma", "conditions": "oral, dose not given, added: pirfenidone", "quantity": "Cmax geometric LS mean", "result": "385 ng/mL"}
{"Compound": "C[C@H]1CN(c2n[nH]c3nc(N[C@H]4CC[C@H](NS(=O)(=O)CCC(F)(F)F)CC4)ncc23)CCO1", "tested on": "Very-long-chain enoyl-CoA reductase (Homo sapiens, UniProt Q9NZ01)", "assay": "Kinobeads competition, measured: GPSN2", "conditions": "0.032 µM, unit not given", "scale": "reference: vehicle", "quantity": "remaining binding", "result": 1.06}
{"Compound": "COc1ccc2nc3cc(Cl)ccc3c(Nc3cc(CN4CCCC4)c(O)c(CN4CCCC4)c3)c2n1", "test system": "mouse, blood", "conditions": "intraperitoneal, 14 mg/kg", "quantity": "plateletcrit", "result": "0.06%"}
{"Compound": "CCCCCCCCCCCCCCCC(=O)N[C@@H](CCC(=O)NCCCC[C@H](NC(=O)[C@H](CC(=O)O)NC(=O)[C@H](CO)NC(=O)[C@@H](NC(=O)[C@H](Cc1ccccc1)NC(=O)[C@@H](NC(=O)CNC(=O)[C@H](CCC(N)=O)NC(=O)[C@H](CO)NC(=O)[C@@H](N)Cc1c[nH]cn1)[C@@H](C)O)[C@@H](C)O)C(=O)N[C@@H](CO)C(=O)N[C@@H](CCC(=O)O)C(=O)N[C@@H](Cc1ccc(O)cc1)C(=O)N[C@@H](CC(C)C)C(=O)N[C@@H](CC(=O)O)C(=O)N[C@@H](CO)C(=O)N[C@@H](CCC(=O)O)C(=O)N[C@@H](CCCNC(=N)N)C(=O)N[C@@H](C)C(=O)N[C@@H](CCCNC(=N)N)C(=O)N[C@@H](CC(=O)O)C(=O)N[C@@H](Cc1ccccc1)C(=O)N[C@H](C(=O)N[C@@H](C)C(=O)N[C@@H](Cc1c[nH]c2ccccc12)C(=O)N[C@@H](CC(C)C)C(=O)N[C@@H](CCC(=O)O)C(=O)N[C@@H](C)C(=O)NCC(=O)NCC(=O)O)C(C)C)C(=O)O", "assay": "measured: decreased appetite", "test system": "human, CrCl ≥20 to <30 mL/min", "conditions": "subcutaneous, 100 µg single dose", "quantity": "treatment-related adverse events", "result": "0%"}
{"Compound": "O=C(O)CCCOc1ccc(F)cc1-c1cc(-c2ccccc2C(F)(F)F)n(-c2ccccc2)n1", "test system": "female Crl:CD(SD) rats", "conditions": "intravenous, 25 µg/kg, 14 d", "quantity": "MCH", "result": "19.5 pg and 20.2 pg and 19.8 pg and 19.6 pg"}
{"Compound": "COc1cc2c(Oc3ccc4[nH]c(C)cc4c3F)ccnc2cc1OCC1(N)CC1", "test system": "paediatric recurrent refractory sarcoma", "conditions": "8 mg", "quantity": "grade 3 gingival bleeding", "result": "0%"}
{"Compound": "COc1c(CCC[P+](c2ccccc2)(c2ccccc2)c2ccccc2)cc2c(c1OC)OCO2.[I-]", "tested on": "SK-MEL-28", "assay": "SRB", "quantity": "TGI", "result": "-4.83 log M"}
{"Compound": "Cn1c(-c2ccc(C(N)=O)cc2F)nnc1C(C)(C)Oc1c(F)cc(Cl)cc1F", "test system": "human", "conditions": "oral, 10 mg, single ascending dose, incl. administration site", "quantity": "general disorder TEAE", "result": "0%"}
{"Compound": "O=C(Nc1ccccc1)C1CCN(C(=O)Oc2cccnc2)CC1", "assay": "adverse event reporting", "test system": "healthy women", "conditions": "oral, 60 mg, 7 days", "quantity": "subjects with feeling drunk", "result": "21.4%"}
{"Compound": "CC[C@H](C)CCCCC(=O)N[C@@H](CCN)C(=O)N[C@H](C(=O)N[C@@H](CCN)C(=O)N[C@H]1CCNC(=O)[C@H]([C@@H](C)O)NC(=O)[C@H](CCN)NC(=O)[C@H](CCN)NC(=O)[C@H](CC(C)C)NC(=O)[C@@H](Cc2ccccc2)NC(=O)[C@H](CCN)NC1=O)[C@@H](C)O", "test system": "human, critically ill, no AKI, plasma", "conditions": "intravenous, dose not given, mean", "quantity": "clearance", "result": "1.45 L/h"}
{"Compound": "Cc1ccc2cc(N3CCC4(O)C(=O)c5cc(C)c(C)cc5N=C34)ccc2n1 (stereo not drawn)", "test system": "rat", "conditions": "intravenous, 15 mg/kg, GLP safety pharmacology", "scale": "reference: vehicle", "quantity": "respiratory rate increase", "result": "19.6 breaths/min"}
{"Compound": "COc1ncnn2ccc(-c3cnc4nc(C)n(Cc5nnc([C@@H](C)F)o5)c4c3)c12", "test system": "human", "conditions": "oral, dose not given, grade 3", "quantity": "patients with malaise", "result": "7.1%"}
{"Compound": "COc1ccc(N2C(=O)N(c3c(C)cccc3Cl)Cc3cnc(Nc4ccc(C5CCN(C)CC5)cc4OC)nc32)nc1", "tested on": "Serine/threonine-protein kinase 24 (STK24, Homo sapiens, UniProt Q9Y6E0)", "assay": "kinase activity, inhibitor", "conditions": "0.5 µM, MST3", "quantity": "inhibition", "result": "27%"}
{"Compound": "COc1cc(CCC[P+](c2ccccc2)(c2ccccc2)c2ccccc2)c(OC)c2c1OCO2.[I-]", "tested on": "SNB-19", "assay": "SRB", "quantity": "TGI", "result": "-4.96 log M"}
{"note": "Excerpt of the above:"}
{"Compound": "COc1ccc2nc3cc(Cl)ccc3c(Nc3cc(CN4CCCC4)c(O)c(CN4CCCC4)c3)c2n1", "test system": "mouse, blood", "conditions": "intraperitoneal, 14 mg/kg", "quantity": "plateletcrit", "result": "0.06%"}
{"Compound": "CCCCCCCCCCCCCCCC(=O)N[C@@H](CCC(=O)NCCCC[C@H](NC(=O)[C@H](CC(=O)O)NC(=O)[C@H](CO)NC(=O)[C@@H](NC(=O)[C@H](Cc1ccccc1)NC(=O)[C@@H](NC(=O)CNC(=O)[C@H](CCC(N)=O)NC(=O)[C@H](CO)NC(=O)[C@@H](N)Cc1c[nH]cn1)[C@@H](C)O)[C@@H](C)O)C(=O)N[C@@H](CO)C(=O)N[C@@H](CCC(=O)O)C(=O)N[C@@H](Cc1ccc(O)cc1)C(=O)N[C@@H](CC(C)C)C(=O)N[C@@H](CC(=O)O)C(=O)N[C@@H](CO)C(=O)N[C@@H](CCC(=O)O)C(=O)N[C@@H](CCCNC(=N)N)C(=O)N[C@@H](C)C(=O)N[C@@H](CCCNC(=N)N)C(=O)N[C@@H](CC(=O)O)C(=O)N[C@@H](Cc1ccccc1)C(=O)N[C@H](C(=O)N[C@@H](C)C(=O)N[C@@H](Cc1c[nH]c2ccccc12)C(=O)N[C@@H](CC(C)C)C(=O)N[C@@H](CCC(=O)O)C(=O)N[C@@H](C)C(=O)NCC(=O)NCC(=O)O)C(C)C)C(=O)O", "assay": "measured: decreased appetite", "test system": "human, CrCl ≥20 to <30 mL/min", "conditions": "subcutaneous, 100 µg single dose", "quantity": "treatment-related adverse events", "result": "0%"}
